{"data": "Assay results gathered from unrelated publications", "note": "Parts stem from different laboratories: compare values within a part only.", "sequence of UniProt P49759 (whole entry, looked up)": "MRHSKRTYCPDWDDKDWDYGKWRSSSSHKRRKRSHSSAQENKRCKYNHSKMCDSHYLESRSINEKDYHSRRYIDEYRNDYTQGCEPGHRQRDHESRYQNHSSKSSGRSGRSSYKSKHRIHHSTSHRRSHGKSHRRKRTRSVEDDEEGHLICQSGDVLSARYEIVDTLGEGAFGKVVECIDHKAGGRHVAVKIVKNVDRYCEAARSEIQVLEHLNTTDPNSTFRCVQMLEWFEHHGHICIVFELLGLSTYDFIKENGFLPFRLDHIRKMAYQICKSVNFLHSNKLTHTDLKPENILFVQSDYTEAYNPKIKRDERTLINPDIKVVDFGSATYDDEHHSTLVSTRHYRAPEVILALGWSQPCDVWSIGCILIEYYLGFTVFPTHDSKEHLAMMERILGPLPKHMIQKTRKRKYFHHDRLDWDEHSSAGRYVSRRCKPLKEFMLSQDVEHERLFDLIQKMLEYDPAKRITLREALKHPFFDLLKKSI", "sequence of UniProt P49674 (whole entry, looked up)": "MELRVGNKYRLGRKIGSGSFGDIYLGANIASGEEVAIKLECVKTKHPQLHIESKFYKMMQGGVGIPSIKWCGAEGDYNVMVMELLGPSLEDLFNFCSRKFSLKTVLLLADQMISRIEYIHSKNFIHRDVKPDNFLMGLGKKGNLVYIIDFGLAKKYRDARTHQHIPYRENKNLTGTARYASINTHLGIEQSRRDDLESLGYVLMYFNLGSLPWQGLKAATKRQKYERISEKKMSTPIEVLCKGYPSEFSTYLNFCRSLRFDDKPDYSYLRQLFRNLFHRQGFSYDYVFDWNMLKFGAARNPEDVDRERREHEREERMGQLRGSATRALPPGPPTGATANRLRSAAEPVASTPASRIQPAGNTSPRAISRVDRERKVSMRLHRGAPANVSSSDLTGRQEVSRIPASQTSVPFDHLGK", "sequence of UniProt Q13153 (whole entry, looked up)": "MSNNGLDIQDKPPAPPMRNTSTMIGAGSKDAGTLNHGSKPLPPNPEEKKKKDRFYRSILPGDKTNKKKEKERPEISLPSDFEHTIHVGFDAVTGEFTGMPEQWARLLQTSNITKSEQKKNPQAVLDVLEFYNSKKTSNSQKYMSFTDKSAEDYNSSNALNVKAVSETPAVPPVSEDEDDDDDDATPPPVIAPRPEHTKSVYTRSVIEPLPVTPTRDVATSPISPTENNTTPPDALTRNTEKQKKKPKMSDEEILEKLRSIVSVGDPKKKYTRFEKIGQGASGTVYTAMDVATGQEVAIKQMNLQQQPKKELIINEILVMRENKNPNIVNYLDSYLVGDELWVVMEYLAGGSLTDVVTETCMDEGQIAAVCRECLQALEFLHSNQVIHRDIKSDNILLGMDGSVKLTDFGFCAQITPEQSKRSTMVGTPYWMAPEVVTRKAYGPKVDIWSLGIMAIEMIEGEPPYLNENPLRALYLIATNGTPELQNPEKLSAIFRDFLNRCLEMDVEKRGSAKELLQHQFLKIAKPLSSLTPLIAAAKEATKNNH", "sequence of UniProt Q9HBY8 (whole entry, looked up)": "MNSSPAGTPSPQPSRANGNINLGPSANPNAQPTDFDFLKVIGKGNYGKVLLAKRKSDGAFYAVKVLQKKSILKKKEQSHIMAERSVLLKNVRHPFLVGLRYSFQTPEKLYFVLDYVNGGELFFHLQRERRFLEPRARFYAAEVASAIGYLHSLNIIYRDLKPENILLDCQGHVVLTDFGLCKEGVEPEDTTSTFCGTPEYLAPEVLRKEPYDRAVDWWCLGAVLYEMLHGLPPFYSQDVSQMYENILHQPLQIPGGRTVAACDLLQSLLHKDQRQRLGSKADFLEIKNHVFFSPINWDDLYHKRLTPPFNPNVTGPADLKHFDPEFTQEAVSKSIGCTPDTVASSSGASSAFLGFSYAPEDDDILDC", "sequence of UniProt P48730 (whole entry, looked up)": "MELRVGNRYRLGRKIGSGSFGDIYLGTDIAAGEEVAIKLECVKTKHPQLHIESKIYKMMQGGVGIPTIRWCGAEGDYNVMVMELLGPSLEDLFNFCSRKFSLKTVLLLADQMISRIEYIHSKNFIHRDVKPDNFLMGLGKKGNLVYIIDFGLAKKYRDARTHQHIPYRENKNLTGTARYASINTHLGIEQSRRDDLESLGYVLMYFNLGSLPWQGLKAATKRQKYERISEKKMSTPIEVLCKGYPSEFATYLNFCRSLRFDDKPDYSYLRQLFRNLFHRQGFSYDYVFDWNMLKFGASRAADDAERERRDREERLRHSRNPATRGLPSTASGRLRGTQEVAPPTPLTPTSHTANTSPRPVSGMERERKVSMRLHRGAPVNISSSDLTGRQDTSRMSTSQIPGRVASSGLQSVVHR", "sequence of UniProt Q14012 (whole entry, looked up)": "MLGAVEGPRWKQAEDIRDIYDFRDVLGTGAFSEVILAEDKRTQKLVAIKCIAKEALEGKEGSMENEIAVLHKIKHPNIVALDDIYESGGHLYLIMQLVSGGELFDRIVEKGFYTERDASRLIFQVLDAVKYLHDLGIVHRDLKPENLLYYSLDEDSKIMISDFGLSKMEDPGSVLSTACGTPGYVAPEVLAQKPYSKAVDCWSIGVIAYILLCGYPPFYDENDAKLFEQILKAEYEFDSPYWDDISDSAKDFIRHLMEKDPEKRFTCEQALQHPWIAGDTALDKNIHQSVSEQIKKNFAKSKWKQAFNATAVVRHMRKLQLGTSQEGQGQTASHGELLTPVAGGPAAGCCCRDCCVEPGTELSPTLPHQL", "sequence of UniProt Q9NQU5 (whole entry, looked up)": "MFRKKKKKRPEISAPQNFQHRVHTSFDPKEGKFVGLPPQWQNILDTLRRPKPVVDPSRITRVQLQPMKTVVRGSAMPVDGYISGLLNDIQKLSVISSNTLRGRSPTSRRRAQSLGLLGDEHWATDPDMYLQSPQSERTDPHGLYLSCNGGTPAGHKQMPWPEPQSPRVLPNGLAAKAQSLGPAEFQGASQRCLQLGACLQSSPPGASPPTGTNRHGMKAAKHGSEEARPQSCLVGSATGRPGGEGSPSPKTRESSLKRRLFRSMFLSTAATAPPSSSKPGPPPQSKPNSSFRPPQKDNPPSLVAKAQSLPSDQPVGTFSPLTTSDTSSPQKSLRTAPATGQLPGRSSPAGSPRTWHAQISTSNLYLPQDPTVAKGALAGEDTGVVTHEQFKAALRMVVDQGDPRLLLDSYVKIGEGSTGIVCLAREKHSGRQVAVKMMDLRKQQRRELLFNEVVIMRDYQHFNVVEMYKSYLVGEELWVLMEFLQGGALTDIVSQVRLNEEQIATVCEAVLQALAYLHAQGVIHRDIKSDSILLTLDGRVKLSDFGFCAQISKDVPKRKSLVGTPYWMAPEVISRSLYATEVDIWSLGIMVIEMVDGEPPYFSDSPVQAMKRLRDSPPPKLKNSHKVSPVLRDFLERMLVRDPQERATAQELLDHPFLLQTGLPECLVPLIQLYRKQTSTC", "sequence of UniProt P49760 (whole entry, looked up)": "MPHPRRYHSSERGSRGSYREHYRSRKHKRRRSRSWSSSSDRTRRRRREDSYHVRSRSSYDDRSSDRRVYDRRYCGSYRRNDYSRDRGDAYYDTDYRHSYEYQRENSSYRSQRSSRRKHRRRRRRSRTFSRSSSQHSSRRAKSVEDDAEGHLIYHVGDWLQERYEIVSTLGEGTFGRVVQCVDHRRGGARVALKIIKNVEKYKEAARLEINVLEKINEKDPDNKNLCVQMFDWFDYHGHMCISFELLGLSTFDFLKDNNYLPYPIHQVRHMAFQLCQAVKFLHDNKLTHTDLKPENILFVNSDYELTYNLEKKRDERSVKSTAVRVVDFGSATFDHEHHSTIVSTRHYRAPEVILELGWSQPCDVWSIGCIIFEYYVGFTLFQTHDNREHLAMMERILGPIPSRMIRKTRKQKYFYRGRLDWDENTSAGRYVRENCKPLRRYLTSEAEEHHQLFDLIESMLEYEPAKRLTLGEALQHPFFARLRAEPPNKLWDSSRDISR", "sequence of UniProt P29317 (whole entry, looked up)": "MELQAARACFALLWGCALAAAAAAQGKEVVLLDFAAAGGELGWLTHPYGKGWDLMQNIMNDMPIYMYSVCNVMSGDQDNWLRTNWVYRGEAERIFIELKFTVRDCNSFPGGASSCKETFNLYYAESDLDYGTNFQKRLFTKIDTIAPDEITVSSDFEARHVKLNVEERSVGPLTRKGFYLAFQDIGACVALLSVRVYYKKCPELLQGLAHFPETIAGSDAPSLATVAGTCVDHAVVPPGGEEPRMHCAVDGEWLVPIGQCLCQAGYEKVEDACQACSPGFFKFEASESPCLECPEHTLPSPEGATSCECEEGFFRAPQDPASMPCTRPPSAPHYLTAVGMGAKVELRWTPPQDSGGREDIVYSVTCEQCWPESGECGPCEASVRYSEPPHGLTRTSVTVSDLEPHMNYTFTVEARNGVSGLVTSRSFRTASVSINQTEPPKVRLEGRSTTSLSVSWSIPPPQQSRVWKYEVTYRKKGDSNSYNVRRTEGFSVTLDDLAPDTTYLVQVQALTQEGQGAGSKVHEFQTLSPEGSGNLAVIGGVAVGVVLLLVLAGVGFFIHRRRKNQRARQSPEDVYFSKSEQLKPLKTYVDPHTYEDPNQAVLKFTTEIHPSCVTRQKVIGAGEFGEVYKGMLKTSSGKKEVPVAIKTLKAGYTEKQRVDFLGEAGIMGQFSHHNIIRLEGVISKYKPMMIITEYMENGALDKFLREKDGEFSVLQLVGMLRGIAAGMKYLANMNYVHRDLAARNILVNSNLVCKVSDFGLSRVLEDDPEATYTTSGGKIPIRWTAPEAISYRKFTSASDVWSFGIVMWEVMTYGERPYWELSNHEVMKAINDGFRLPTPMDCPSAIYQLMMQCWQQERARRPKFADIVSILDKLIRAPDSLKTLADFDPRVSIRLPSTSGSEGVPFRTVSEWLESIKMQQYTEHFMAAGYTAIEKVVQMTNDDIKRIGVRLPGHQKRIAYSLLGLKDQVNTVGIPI"}
{"data": "Study 1", "method": "logD(dd/w) and ALogP", "notes": "JT method"}
{"Compound": "CC(C)C[C@@H]1NC(=O)[C@H](C)NC(=O)[C@@H](CC(C)C)NC(=O)[C@H](C(C)C)NC(=O)[C@H](CC(C)C)NC(=O)[C@@H](CC(C)C)NC(=O)[C@H](CC(C)C)NC1=O", "lipophilic permeability efficiency": 2.48}
{"Compound": "CC(C)C[C@@H]1NC(=O)[C@H](C(C)C)NC(=O)[C@H](CCC(=O)N2CCCC2)NC(=O)[C@H](CCC(=O)N2CCCC2)NC(=O)[C@@H](CCC(=O)N2CCCC2)NC(=O)[C@H](CC(C)C)NC(=O)[C@@H](CC(C)C)NC1=O", "lipophilic permeability efficiency": 1.94}
{"Compound": "CC(C)C[C@@H]1NC(=O)[C@H](C)NC(=O)[C@@H](CC(C)C)NC(=O)[C@@H](CC(C)C)NC(=O)[C@H](C(C)C)NC(=O)[C@H](CC(C)C)NC(=O)[C@@H](CC(C)C)NC1=O", "lipophilic permeability efficiency": 3.28}
{"Compound": "CC(C)C[C@@H]1NC(=O)[C@H](C)NC(=O)[C@@H](CC(C)C)NC(=O)[C@H](C)NC(=O)[C@H](CC(C)C)NC(=O)[C@H](CC(C)C)NC(=O)[C@@H](C(C)C)NC1=O", "lipophilic permeability efficiency": 2.57}
{"Compound": "CC(C)C[C@@H]1NC(=O)[C@@H](C)NC(=O)[C@H](CCC(=O)N2CCCC2)NC(=O)[C@H](C)NC(=O)[C@H](C(C)C)NC(=O)[C@H](CC(C)C)NC(=O)[C@@H](CC(C)C)NC1=O", "lipophilic permeability efficiency": 2.32}
{"Compound": "CC(C)C[C@@H]1NC(=O)[C@H](CC(C)C)NC(=O)[C@@H](CC(C)C)NC(=O)[C@H](C)NC(=O)[C@@H](CCC(=O)N2CCCC2)NC(=O)[C@H](C)NC(=O)[C@H](C)NC1=O", "lipophilic permeability efficiency": 1.3}
{"Compound": "CC(C)C[C@@H]1NC(=O)[C@H](CC(C)C)NC(=O)[C@@H](CC(C)C)NC(=O)[C@@H](C(C)C)NC(=O)[C@H](C(C)C)NC(=O)[C@H](CC(C)C)NC(=O)[C@@H](CC(C)C)NC1=O", "lipophilic permeability efficiency": 3.29}
{"Compound": "CC(C)C[C@@H]1NC(=O)[C@H](C)NC(=O)[C@@H](CC(C)C)NC(=O)[C@@H](CC(C)C)NC(=O)[C@@H](CCC(=O)N2CCCC2)NC(=O)[C@H](CC(C)C)NC(=O)[C@@H](CC(C)C)NC1=O", "lipophilic permeability efficiency": 2.29}
{"Compound": "CC(C)C[C@@H]1NC(=O)[C@H](C(C)C)NC(=O)[C@H](C)NC(=O)[C@H](CCC(=O)N2CCCC2)NC(=O)[C@@H](CCC(=O)N2CCCC2)NC(=O)[C@H](CC(C)C)NC(=O)[C@@H](CC(C)C)NC1=O", "lipophilic permeability efficiency": 1.69}
{"Compound": "CC(C)C[C@@H]1NC(=O)[C@H](C(C)C)NC(=O)[C@H](Cc2cscn2)NC(=O)[C@H](CC(C)C)NC(=O)[C@@H](CCC(=O)N2CCCC2)NC(=O)[C@H](CC(C)C)NC(=O)[C@@H](CC(C)C)NC1=O", "lipophilic permeability efficiency": 2.09}
{"data": "Study 2", "SMILES": "NC(=O)c1cccc(-c2cc(Nc3ccc(OC(F)(F)F)cc3)ncn2)c1", "read-out": "enzyme activity", "action": "inhibitor", "concentration": "0.5 µM", "reference": "control"}
{"target": "Dual specificity protein kinase CLK1 (CLK1, Homo sapiens, UniProt P49759)", "remaining activity [%]": 115}
{"target": "Protein kinase C theta type (PRKCQ, Homo sapiens, UniProt Q04759)", "remaining activity [%]": 104}
{"target": "Ephrin type-A receptor 2 (EPHA2, Homo sapiens, UniProt P29317)", "remaining activity [%]": 94.9}
{"target": "Serine/threonine-protein kinase SIK2 (SIK2, Homo sapiens, UniProt Q9H0K1)", "remaining activity [%]": 108}
{"target": "Dual specificity protein kinase CLK2 (CLK2, Homo sapiens, UniProt P49760)", "remaining activity [%]": 93.1}
{"target": "SRSF protein kinase 1 (SRPK1, Homo sapiens, UniProt Q96SB4)", "remaining activity [%]": 98}
{"target": "Insulin-like growth factor 1 receptor (IGF1R, Homo sapiens, UniProt P08069)", "remaining activity [%]": 91}
{"target": "Casein kinase I isoform epsilon (CSNK1E, Homo sapiens, UniProt P49674)", "remaining activity [%]": 103}
{"target": "Serine/threonine-protein kinase Sgk2 (SGK2, Homo sapiens, UniProt Q9HBY8)", "remaining activity [%]": 116}
{"target": "Calcium/calmodulin-dependent protein kinase kinase 1 (CAMKK1, Homo sapiens, UniProt Q8N5S9)", "remaining activity [%]": 103}
{"target": "Calcium/calmodulin-dependent protein kinase type 1 (CAMK1, Homo sapiens, UniProt Q14012)", "remaining activity [%]": 97.5}
{"target": "Ribosomal protein S6 kinase alpha-3 (RPS6KA3, Homo sapiens, UniProt P51812)", "remaining activity [%]": 101}
{"target": "Vascular endothelial growth factor receptor 1 (FLT1, Homo sapiens, UniProt P17948)", "remaining activity [%]": 98.4}
{"target": "Cyclin-dependent kinase 2, with cyclin E (CDK2, Homo sapiens, UniProt P24941)", "remaining activity [%]": 86.6}
{"target": "Tyrosine-protein kinase Tec (TEC, Homo sapiens, UniProt P42680)", "remaining activity [%]": 139}
{"target": "Serine/threonine-protein kinase PAK 1 (PAK1, Homo sapiens, UniProt Q13153)", "remaining activity [%]": 93.3}
{"target": "Casein kinase I isoform delta (CSNK1D, Homo sapiens, UniProt P48730)", "remaining activity [%]": 99.1}
{"target": "Mitogen-activated protein kinase kinase kinase 20 (MAP3K20, Homo sapiens, UniProt Q9NYL2)", "remaining activity [%]": 102}
{"target": "Serine/threonine-protein kinase PAK 6 (PAK6, Homo sapiens, UniProt Q9NQU5)", "remaining activity [%]": 102}
{"target": "Tyrosine-protein kinase JAK1 (JAK1, Homo sapiens, UniProt P23458)", "remaining activity [%]": 98.9}
{"target": "Muscle, skeletal receptor tyrosine-protein kinase (MUSK, Homo sapiens, UniProt O15146)", "remaining activity [%]": 95.9}
{"data": "Study 3", "host": "mouse", "sample": "microsomes or S9", "concentration": "2 µM", "time": "0.5 h"}
{"Compound": "CNS(=O)(=O)c1cn(CC(=O)NCc2ccccc2OC)cc1S(=O)(=O)NC", "remaining compound [%]": 44.7}
{"Compound": "COc1cc(=O)[nH]cc1C(=O)N1CCC(=O)N2CCCC21 (stereo not drawn)", "remaining compound [%]": "> 99"}
{"Compound": "COc1ccc(CN2CCC(C(=O)N3CCN(c4cccc(C)c4C)CC3)CC2)c(OC)c1", "remaining compound [%]": 20.3}
{"Compound": "Cc1ccc(C(O)(c2ccccc2)c2cnc(C(C)C)n2C)cc1 (stereo not drawn)", "remaining compound [%]": 2.08}
{"Compound": "CN(Cc1nccs1)S(=O)(=O)c1ccc2c(c1)CN(S(C)(=O)=O)CC2", "remaining compound [%]": 13}
{"Compound": "O=C(c1cccs1)C1C(C(=O)c2ccco2)C2(C(=O)Nc3ccccc32)C2C=Cc3ccccc3N12 (stereo not drawn)", "remaining compound [%]": 46.8}
{"Compound": "Cc1c(-c2nnc(Cc3ccccc3)o2)nnn1-c1ccc(C(C)C)cc1", "remaining compound [%]": 10.8}
{"Compound": "C/C=C/Cn1c(C(=O)c2ccccc2)c(C(C)C)c(=O)[nH]c1=O", "remaining compound [%]": 99.4}
{"Compound": "CCOC(=O)c1c(-c2ccccc2)noc1-c1c[nH]nn1", "remaining compound [%]": 99}
{"Compound": "COc1cc(C2N=C(N3CCc4ccccc43)N=C3NC(C)=CC(=O)N32)ccc1O (stereo not drawn)", "remaining compound [%]": 28.1}
{"Compound": "C=CCn1c(CN2C(=O)c3cccc4cccc(c34)C2=O)nnc1SCC(=O)OCC", "remaining compound [%]": 99.2}
{"Compound": "COc1ccc(C(=O)N2CCC(Cc3noc(C4CCOCC4)n3)C2)cc1F (stereo not drawn)", "remaining compound [%]": 53.1}
{"Compound": "Clc1cccc(C2CC(c3cccs3)Nc3ncnn32)c1Cl (stereo not drawn)", "remaining compound [%]": 2.35}
{"Compound": "CCO[C@H]1CN(Cc2ccc3[nH]ccc3c2)C[C@@H]1O", "remaining compound [%]": 57.7}
{"Compound": "CCOC(=O)c1[nH]c(=O)n(CCS(C)(=O)=O)c1C", "remaining compound [%]": 75}
{"Compound": "CCOC(=O)Cc1cc(=O)n2nc(-c3ccccc3)c(-c3ccccc3)c2[nH]1", "remaining compound [%]": 51.1}
{"data": "Further values, each from its own experiment"}
{"Compound": "C[C@H](c1ccnc(Nc2nc3ccc(-c4cc(N(C)C)ncn4)cc3[nH]2)c1)N1CCN(C(=O)CC(F)(F)F)CC1", "target": "Receptor-type tyrosine-protein kinase FLT3 (FLT3, Homo sapiens, UniProt P36888)", "test": "in vitro binding", "quantity": "binding affinity", "value": "123 nM"}
{"note": "A few entries again (study 3):"}
{"Compound": "Cc1ccc(C(O)(c2ccccc2)c2cnc(C(C)C)n2C)cc1 (stereo not drawn)", "remaining compound [%]": 2.08}
{"Compound": "CN(Cc1nccs1)S(=O)(=O)c1ccc2c(c1)CN(S(C)(=O)=O)CC2", "remaining compound [%]": 13}
{"Compound": "O=C(c1cccs1)C1C(C(=O)c2ccco2)C2(C(=O)Nc3ccccc32)C2C=Cc3ccccc3N12 (stereo not drawn)", "remaining compound [%]": 46.8}
{"Compound": "Cc1c(-c2nnc(Cc3ccccc3)o2)nnn1-c1ccc(C(C)C)cc1", "remaining compound [%]": 10.8}
{"Compound": "C/C=C/Cn1c(C(=O)c2ccccc2)c(C(C)C)c(=O)[nH]c1=O", "remaining compound [%]": 99.4}
{"Compound": "CCOC(=O)c1c(-c2ccccc2)noc1-c1c[nH]nn1", "remaining compound [%]": 99}
{"Compound": "COc1cc(C2N=C(N3CCc4ccccc43)N=C3NC(C)=CC(=O)N32)ccc1O (stereo not drawn)", "remaining compound [%]": 28.1}
